Results collected from several papers.
Each numbered part is a random draw from the data of one study; scales do not carry over between parts.

Block 1 — method: aptamer microarray, sandwich; form: DNA with 2'F-ANA; sample: in vitro; concentration: 200 nM; added: Cy3 exosite-II aptamer, 400 nM; direction: higher = stronger binding; endpoint: mean fluorescence intensity; strand: GGTTGGTGTGGTTGG
Target: Prothrombin, mature alpha-thrombin (F2, Homo sapiens, UniProt P00734)
Notes: whole 15-mer aptamer, many near background
2'F-ANA at 1 3 4 5 6 7 8 11 12: 105 a.u.
2'F-ANA at 1 6 7 12 13 15: 338 a.u.
2'F-ANA at 1 2 5 6 7 9 10 11 13 14 15: 65.2 a.u.
2'F-ANA at 1 2 4 5 6 7 8 13 14 15: 60.4 a.u.
2'F-ANA at 1 2 4 6 8 9 11 12 14: 53.5 a.u.
2'F-ANA at 3 5 8 12 14: 63.5 a.u.
2'F-ANA at 4 7 8 10 12 14 15: 75.4 a.u.
2'F-ANA at 1 2 4 6 8 9 10 11 15: 51.2 a.u.
2'F-ANA at 2 3 9 11: 848 a.u.
2'F-ANA at 1 6 7 8 9 11 12 14 15: 73.8 a.u.
2'F-ANA at 4 5 7 9 12: 158 a.u.
2'F-ANA at 3 6 8 9 10 13 15: 463 a.u.
2'F-ANA at 7 8 10 11 14: 116 a.u.
2'F-ANA at 1 3 4 5 6 7 10 11 12 13: 47.6 a.u.

Block 2 — method: protein binding microarray; form: double-stranded DNA, one strand shown; sample: in vitro; concentration: not given; reference: not given; direction: higher = stronger binding; endpoint: E-score
Target: Histone acetyltransferase KAT6A, both winged helices, GST fusion (KAT6A, Homo sapiens, UniProt Q92794, residues 1-181)
Notes: 8-mer, flanks averaged, mean of 2 arrays, mostly near background
Construct (chain): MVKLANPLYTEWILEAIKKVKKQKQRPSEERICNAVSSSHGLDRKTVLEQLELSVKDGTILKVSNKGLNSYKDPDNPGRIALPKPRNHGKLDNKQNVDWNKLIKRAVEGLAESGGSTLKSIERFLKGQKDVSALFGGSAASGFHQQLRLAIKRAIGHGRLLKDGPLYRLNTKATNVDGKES
AACAGCCG: 0.217
ACCGTCCG: 0.234
AACTCTCG: -0.0513
AGCAAGCT: -0.246
CCCCTAAA: -0.149
AATACTGC: -0.0657
GTGCCTAA: -0.0812
AGCGGGTA: 0.254
GAACGACA: -0.12
GACCCCTC: -0.21
CCCCTACG: -0.103
CAGGGGTC: -0.141
ACTCCTCT: -0.151
ATTTCGTC: -0.113
GAAGGACA: 0.00732
CTTTTCCA: -0.103
ATCAGCCA: -0.177
GCCATACC: -0.00854
CATACCGC: 0.276
GAGCTAGC: -0.0352
TACGTGGA: 0.0901
CGGGTACC: 0.138
ACATCCAG: -0.0456
AAGTCTAG: -0.0189
GAAACTTC: -0.0228

Block 3 — method: RNA Bind-n-Seq; form: RNA; sample: in vitro; concentration: not given; reference: input RNA pool; direction: higher = stronger binding; endpoint: bound/input enrichment
Target: RING finger protein unkempt homolog, zinc fingers 1-6, GST-SBP tag (UNK, Homo sapiens, UniProt Q9C0B0, residues 30-357)
Chain of UniProt Q9C0B0 (30-357, looked up): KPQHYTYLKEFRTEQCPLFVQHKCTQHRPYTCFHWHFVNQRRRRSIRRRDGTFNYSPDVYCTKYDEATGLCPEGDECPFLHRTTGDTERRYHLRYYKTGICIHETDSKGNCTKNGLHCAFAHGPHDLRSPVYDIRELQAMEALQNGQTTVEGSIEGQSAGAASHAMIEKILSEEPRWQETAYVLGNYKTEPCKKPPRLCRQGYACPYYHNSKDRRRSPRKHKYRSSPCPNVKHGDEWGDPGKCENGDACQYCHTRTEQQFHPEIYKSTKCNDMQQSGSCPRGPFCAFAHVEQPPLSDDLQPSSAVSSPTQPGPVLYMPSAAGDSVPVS
Notes: RNA with constant flanks, human-mouse chimeric sites, ends assumed
Constant ends, left off below: GGGAGUUCUACAGUCCGACGAUC … CAACAGAGGAUUGAGCAUCA
UACUACUGAAUCUGUGAUAUUGGCAAUUAUUAUUAUGGCCAGGGUCAUCCCAUGAAGCCUCAUAGAAUCCGGAUGACUCAUAACUUGCUGCUAAAUUAUGGUUUAUACCGAAAAAUGGAA: 0.184 ratio
CCCUCCCCGGGCCACCCACCCCUCCCGGCUCCCCGCCGAGAUCCAGGUUUCUUCUGUUUUCAUAGCCAAUAAGAAAAAUGUUCUACGCACAUUUUGUCCUCAGUAAACGAGGGCCUCUGG: 1.2 ratio
UAAAUCCUGUGCCAGCACUUCGCUCAUAAAGUUUUAAAUUCUGGACCAAUAGUGUUUGUUUCCUGAUUAUUGUAUCCAAUACUUUGCCUAGUAUGUAACUCACUCUUCUGGAUAAAUAAA: 2.35 ratio
UAUAUCACCAAUGUUCUACAAAAUCCUGAUUUGGCUCUGAGAAUGGCUGUGCGGAACAACUUAGCUGGUGCUGAAGAACUCUUUGCCCGGAAAUUUAAUGCUCUCUUCGCCCAGGGAAAC: 0.453 ratio
GGGGAGAAACCUUACGAGUGUGUGCAGUGUGGGAAAUCCUACAGUCAGAGCUCAAACCUCUUCAGACAUCAGAGAAGACACAAUGCAGAAAAACUUCUGAAUGUUGUGAAGGUUUAAGAA: 0.229 ratio
CCCCAAUACCAUUUGCAGGUCUGGAACUGCACUCUCUUUAAAGUUUUACAUGUAUACAUUUUAGGGCUGUAGAUUUAUUUUCCUGGUUUCUUUUCCAAUUGCUGACUUUUGAGCACAGAA: 2.61 ratio
GGCCUGGGACCGUCCUGGCUAGUGCAAAUAGCGGCAGGUGGAGGCUCGAGAGGAAAGUUUGUUAGUGGAGGCAGUGGUAGAGGCCGUCAUGUACGGUCCUUUACUCGAUAGAUGUGUUCU: 0.691 ratio

Block 4 — method: universal PBM; form: double-stranded DNA, one strand shown; sample: in vitro; concentration: not given; direction: higher = stronger binding; endpoint: E-score
Target: Sal-like protein 4, full length isoform B (SALL4, Homo sapiens, UniProt Q9UJQ4-2, residues 1-616)
Notes: 8-mer, flanks averaged, mean of replicates
Construct (chain): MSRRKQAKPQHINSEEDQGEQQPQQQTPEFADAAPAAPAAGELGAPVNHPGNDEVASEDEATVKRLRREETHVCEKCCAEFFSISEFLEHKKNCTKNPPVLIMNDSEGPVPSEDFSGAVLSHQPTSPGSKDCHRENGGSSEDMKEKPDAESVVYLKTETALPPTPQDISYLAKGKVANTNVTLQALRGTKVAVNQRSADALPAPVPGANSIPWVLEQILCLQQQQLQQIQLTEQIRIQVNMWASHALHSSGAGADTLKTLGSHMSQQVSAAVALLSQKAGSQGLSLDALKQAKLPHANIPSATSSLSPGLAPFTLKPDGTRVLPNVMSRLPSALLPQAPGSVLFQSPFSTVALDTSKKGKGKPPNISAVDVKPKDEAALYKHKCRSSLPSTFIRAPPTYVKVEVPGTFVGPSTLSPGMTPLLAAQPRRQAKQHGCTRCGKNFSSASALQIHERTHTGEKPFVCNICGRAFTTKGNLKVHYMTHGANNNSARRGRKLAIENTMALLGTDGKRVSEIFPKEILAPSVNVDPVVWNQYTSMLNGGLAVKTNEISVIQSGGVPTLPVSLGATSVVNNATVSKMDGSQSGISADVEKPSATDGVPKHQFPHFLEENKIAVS
AGCATTAC: 0.0755
CCAAGCAA: -0.0927
CGTTGGGA: -0.0714
AGGCCGTG: -0.219
TCATTGGA: 0.00941
ATCCTTAC: 0.124
CGATGCGC: -0.132
CGCTTGTC: -0.187
CTAGGCTC: -0.237
CGAACCAA: -0.0432
AAACGGAG: -0.0177
CGTACCAG: -0.19
GCACTGAC: -0.111
CAATCAGA: -0.0534
GACGAAGC: -0.137
AAGAGCGT: 0.0691

Block 5 — method: RNA Bind-n-Seq; form: RNA; sample: in vitro; concentration: 200 nM; notes: whole 134-nt RNA, ends assumed; added: 150 mM KCl; reference: input library; direction: higher = stronger binding; endpoint: log2 enrichment
Target: Fragile X messenger ribonucleoprotein 1, C-terminal low-complexity region (Fmr1, Mus musculus, UniProt P35922)
Constant ends, left off below: GGGAGUUCUACAGUCCGACGAUC … UGGAAUUCUCGGGUGUCAAGG
UAACAUUAGAGGAGGAUCUGAUGGAUAUGGCAGUGGACGUGGAUUUGGGGAUGGCUAUAAUGGGUAUGGAGGAGGACCUGGAGGUGGCAA: 0.41
UGGCCCGGGUGGCAUGCGGGGAGGAAGAGGUGGCCUCAUGGAUCGUGGUGGUCCCGGUGGAAUGUUCAGAGGUGGCCGUGGUGGAGACAG: 0.615
GUCCUGUGCUACACAUCGUAUGUACCGAAUCGGGGAAAAAGGGGAAAGGGGUUUGGGGAAAGUAUUAUGUUACGCCGUUCGGAUCUGCAC: 0.397
GUCCUGUGCUACACAUCGUAUGUACCGAAUCGGGCCCCGGGGCCCCGGGGCCCCGGGGAAAGUAUUAUGUUACGCCGUUCGGAUCUGCAC: -0.56
GCCACCAUGCCCACCUAGUUUUUGCAUUUUUAGUGGAGGUGUGGUUUCACUGUGUUGGCCAGGCUGGUCUCUUAACUCCUGACCUCAGGU: -0.0233
UCCUCAAGUCCUGUGCUACACAUCGUAUGUACCGAAUCGGGGCGGGCGGCGGAAAGUAUUAUGUUACGCCGUUCGGAUCUGCACUUCCAG: -0.2
CCUCAAGUCCUGUGCUACACAUCGUAUGUACCGAAUCGGGUGGGUGGGGUGGGAAAGUAUUAUGUUACGCCGUUCGGAUCUGCACUUCCA: 0.616
ACCAUGCAGGUGGGCAUCUUUGGGAAGUGGGGCAAGGGGGGGAUAGGGAGGGGGGUAACACUUUGGGAACAGGAGGUCCCAGGUCGUUUC: 0.305
UCAAGUCCUGUGCUACACAUCGUAUGUACCGAAUCGGCCCGGCCCGGGCCCGGGGAAAGUAUUAUGUUACGCCGUUCGGAUCUGCACUUC: -0.62

Repeated from above (block 5):
GUCCUGUGCUACACAUCGUAUGUACCGAAUCGGGGAAAAAGGGGAAAGGGGUUUGGGGAAAGUAUUAUGUUACGCCGUUCGGAUCUGCAC: 0.397
GUCCUGUGCUACACAUCGUAUGUACCGAAUCGGGCCCCGGGGCCCCGGGGCCCCGGGGAAAGUAUUAUGUUACGCCGUUCGGAUCUGCAC: -0.56
GCCACCAUGCCCACCUAGUUUUUGCAUUUUUAGUGGAGGUGUGGUUUCACUGUGUUGGCCAGGCUGGUCUCUUAACUCCUGACCUCAGGU: -0.0233
UCCUCAAGUCCUGUGCUACACAUCGUAUGUACCGAAUCGGGGCGGGCGGCGGAAAGUAUUAUGUUACGCCGUUCGGAUCUGCACUUCCAG: -0.2
CCUCAAGUCCUGUGCUACACAUCGUAUGUACCGAAUCGGGUGGGUGGGGUGGGAAAGUAUUAUGUUACGCCGUUCGGAUCUGCACUUCCA: 0.616
ACCAUGCAGGUGGGCAUCUUUGGGAAGUGGGGCAAGGGGGGGAUAGGGAGGGGGGUAACACUUUGGGAACAGGAGGUCCCAGGUCGUUUC: 0.305
UCAAGUCCUGUGCUACACAUCGUAUGUACCGAAUCGGCCCGGCCCGGGCCCGGGGAAAGUAUUAUGUUACGCCGUUCGGAUCUGCACUUC: -0.62
